Published values of several laboratories.
Protocols differ between the studies behind these lines. ± marks the error that the study gave.
Organism: Hepatitis C virus

| Structure (SMILES) | test | system | conditions | scale | quantity | result |
| --- | --- | --- | --- | --- | --- | --- |
| O=c1cc(OCc2cccc(Cl)c2)oc2ccc(OCc3cccc(Cl)c3)c(O)c12 | viral replication, inhibitor | Huh-7, GETYPE1 | 96 h, replicon | – | EC50 | 17000 to 24000 nM |
| CC(C)(C)OC(=O)N[C@H]1CCCCC/C=C\[C@@H]2C[C@@]2(C(=O)NS(=O)(=O)C2CC2)NC(=O)[C@@H]2C[C@@H](OC(=O)N3Cc4cccc(F)c4C3)CN2C1=O | viral replication, inhibitor | Huh7.5, GETYPE1B | 72 h, replicon | – | EC50 | 2 nM |
| O=c1cc(OCc2ccc(Cl)cc2)oc2ccc(OCc3cccc(Cl)c3)c(O)c12 | viral replication, inhibitor | Huh-7, GETYPE1 | 96 h, replicon | – | EC50 | 17000 to 24000 nM |
| COC(=O)N[C@H](C(=O)N1CCC[C@H]1c1ncc(-c2ccc(-c3ccc(-c4cnc([C@@H]5CCCN5C(=O)[C@@H](NC(=O)OC)C(C)C)[nH]4)cc3)cc2)[nH]1)C(C)C | replicon replication, transient replicon | genotype 1a wild type | – | – | EC50 | 0.0059 ± 0.0037 nM |
| CC(C)(C)[C@H](NC(=O)[C@@H](NC(=O)c1cnccn1)C1CCCCC1)C(=O)N1CC2(Cc3ccccc3C2)C1C(=O)NC(CC1CC1)C(=O)C(=O)NC1CC1 (some centres unmarked) | viral replication, inhibitor | Huh-7 | replicon | – | EC50 | 700 nM |
| O=C(NCCCN1CCCCC1)c1ccc2c(=O)n(CCc3ccccc3)c(=O)[nH]c2c1 | HCV infection, Gaussia luciferase reporter | Huh7.5.1 reporter cells | – | baseline: 10 µM cyclosporin A, DMSO, negative means inhibition | maximal response | -83.3% |
| Clc1ccc(Cn2c(CN3CCCC3)nc3ccccc32)cc1 | replicon colony formation | Huh7.5 transfected with replicon RNA, W55R NS4B mutant | 8 µM | – | sensitivity of resistant replicon | no effect |
| CCC1CCCCN1CCCNC(=O)C1CCN(Cc2nc(-c3ccc(Cl)cc3)oc2C)CC1 (centres unmarked) | HCV infection, Gaussia luciferase reporter | Huh7.5.1 reporter cells | – | baseline: 10 µM cyclosporin A, DMSO, negative means inhibition | maximal response | -80.8% |
| CCC[C@H](NC(=O)[C@@H]1[C@H]2CCC[C@H]2CN1C(=O)[C@@H](NC(=O)[C@@H](NC(=O)c1cnccn1)C1CCCCC1)C(C)(C)C)C(=O)C(=O)NC1CC1 | viral replication | Ava5 replicon cells, genotype 1b Con1 subgenomic | – | – | EC50 | 250 ± 24 nM |
| COC(=O)N[C@H](C(=O)N1CCC[C@H]1c1nc(-c2ccc(-c3ccc(-c4c[nH]c([C@@H]5CCCN5C(=O)[C@@H](NC(=O)OC)C(C)C)n4)cc3)cc2)c[nH]1)C(C)C | replicon replication | Huh7-Lunet/T7, subgenomic reporter replicon | 24 h, added 4 h post-transfection | – | EC50 | < 0.006 nM |
| CCCCCn1c(=O)[nH]c2cc(C(=O)NC3CCN(Cc4ccccc4)CC3)ccc2c1=O | HCV infection, Gaussia luciferase reporter | Huh7.5.1 reporter cells | – | baseline: 10 µM cyclosporin A, DMSO, negative means inhibition | maximal response | 12.5% |

Repeated from above:
| Structure (SMILES) | test | system | conditions | scale | quantity | result |
| --- | --- | --- | --- | --- | --- | --- |
| CCC[C@H](NC(=O)[C@@H]1[C@H]2CCC[C@H]2CN1C(=O)[C@@H](NC(=O)[C@@H](NC(=O)c1cnccn1)C1CCCCC1)C(C)(C)C)C(=O)C(=O)NC1CC1 | viral replication | Ava5 replicon cells, genotype 1b Con1 subgenomic | – | – | EC50 | 250 ± 24 nM |
| COC(=O)N[C@H](C(=O)N1CCC[C@H]1c1nc(-c2ccc(-c3ccc(-c4c[nH]c([C@@H]5CCCN5C(=O)[C@@H](NC(=O)OC)C(C)C)n4)cc3)cc2)c[nH]1)C(C)C | replicon replication | Huh7-Lunet/T7, subgenomic reporter replicon | 24 h, added 4 h post-transfection | – | EC50 | < 0.006 nM |
